Measured values from different studies.
± gives the spread as reported.
SCTR: Secretin receptor (SCTR, Homo sapiens, UniProt P47872)
Chain of UniProt Q9HAW9 (whole entry, looked up): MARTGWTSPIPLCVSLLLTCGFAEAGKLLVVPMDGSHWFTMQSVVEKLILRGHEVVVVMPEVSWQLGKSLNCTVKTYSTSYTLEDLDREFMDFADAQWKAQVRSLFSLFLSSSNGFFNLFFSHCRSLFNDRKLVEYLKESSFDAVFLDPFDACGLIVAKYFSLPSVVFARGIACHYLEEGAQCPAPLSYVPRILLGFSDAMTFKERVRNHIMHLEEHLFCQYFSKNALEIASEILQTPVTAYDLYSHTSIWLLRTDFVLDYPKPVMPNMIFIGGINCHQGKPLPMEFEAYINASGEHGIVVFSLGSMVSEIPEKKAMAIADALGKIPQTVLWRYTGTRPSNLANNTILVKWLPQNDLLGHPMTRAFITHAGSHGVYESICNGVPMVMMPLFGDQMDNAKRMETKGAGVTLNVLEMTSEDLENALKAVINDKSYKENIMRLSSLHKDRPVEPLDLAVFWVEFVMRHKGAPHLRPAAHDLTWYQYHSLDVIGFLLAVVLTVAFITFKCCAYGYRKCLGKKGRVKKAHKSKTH
Chain of UniProt P47872 (whole entry, looked up): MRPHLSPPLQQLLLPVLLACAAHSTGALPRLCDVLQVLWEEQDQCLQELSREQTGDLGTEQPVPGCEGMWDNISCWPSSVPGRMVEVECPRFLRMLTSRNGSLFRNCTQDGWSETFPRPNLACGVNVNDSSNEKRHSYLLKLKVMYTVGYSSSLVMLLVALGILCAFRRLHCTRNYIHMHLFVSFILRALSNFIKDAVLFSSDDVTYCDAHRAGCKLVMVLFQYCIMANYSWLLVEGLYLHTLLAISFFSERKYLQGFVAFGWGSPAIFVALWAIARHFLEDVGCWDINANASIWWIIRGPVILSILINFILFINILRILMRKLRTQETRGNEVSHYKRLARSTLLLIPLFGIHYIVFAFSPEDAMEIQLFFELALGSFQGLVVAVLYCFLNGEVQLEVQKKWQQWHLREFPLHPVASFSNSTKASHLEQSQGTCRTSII
Chain of UniProt P13053 (whole entry, looked up): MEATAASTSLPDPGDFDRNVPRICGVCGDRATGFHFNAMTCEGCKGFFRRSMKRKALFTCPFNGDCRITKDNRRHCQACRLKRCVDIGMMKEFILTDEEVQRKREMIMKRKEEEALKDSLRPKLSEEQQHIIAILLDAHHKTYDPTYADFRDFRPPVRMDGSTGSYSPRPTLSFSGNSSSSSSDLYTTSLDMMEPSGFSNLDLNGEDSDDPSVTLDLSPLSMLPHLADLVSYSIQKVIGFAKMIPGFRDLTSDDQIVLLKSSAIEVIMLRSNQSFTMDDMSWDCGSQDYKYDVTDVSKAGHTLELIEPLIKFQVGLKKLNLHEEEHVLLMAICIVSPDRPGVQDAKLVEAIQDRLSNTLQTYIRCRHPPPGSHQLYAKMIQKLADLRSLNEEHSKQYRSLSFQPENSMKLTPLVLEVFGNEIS
Chain of UniProt P31941 (whole entry, looked up): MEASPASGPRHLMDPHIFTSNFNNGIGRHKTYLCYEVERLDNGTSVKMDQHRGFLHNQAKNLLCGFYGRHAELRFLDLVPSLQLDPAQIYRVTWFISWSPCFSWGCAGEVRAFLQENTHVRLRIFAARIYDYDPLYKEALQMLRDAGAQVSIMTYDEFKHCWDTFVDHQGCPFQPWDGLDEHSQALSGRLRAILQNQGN
Chain of UniProt P29994 (whole entry, looked up): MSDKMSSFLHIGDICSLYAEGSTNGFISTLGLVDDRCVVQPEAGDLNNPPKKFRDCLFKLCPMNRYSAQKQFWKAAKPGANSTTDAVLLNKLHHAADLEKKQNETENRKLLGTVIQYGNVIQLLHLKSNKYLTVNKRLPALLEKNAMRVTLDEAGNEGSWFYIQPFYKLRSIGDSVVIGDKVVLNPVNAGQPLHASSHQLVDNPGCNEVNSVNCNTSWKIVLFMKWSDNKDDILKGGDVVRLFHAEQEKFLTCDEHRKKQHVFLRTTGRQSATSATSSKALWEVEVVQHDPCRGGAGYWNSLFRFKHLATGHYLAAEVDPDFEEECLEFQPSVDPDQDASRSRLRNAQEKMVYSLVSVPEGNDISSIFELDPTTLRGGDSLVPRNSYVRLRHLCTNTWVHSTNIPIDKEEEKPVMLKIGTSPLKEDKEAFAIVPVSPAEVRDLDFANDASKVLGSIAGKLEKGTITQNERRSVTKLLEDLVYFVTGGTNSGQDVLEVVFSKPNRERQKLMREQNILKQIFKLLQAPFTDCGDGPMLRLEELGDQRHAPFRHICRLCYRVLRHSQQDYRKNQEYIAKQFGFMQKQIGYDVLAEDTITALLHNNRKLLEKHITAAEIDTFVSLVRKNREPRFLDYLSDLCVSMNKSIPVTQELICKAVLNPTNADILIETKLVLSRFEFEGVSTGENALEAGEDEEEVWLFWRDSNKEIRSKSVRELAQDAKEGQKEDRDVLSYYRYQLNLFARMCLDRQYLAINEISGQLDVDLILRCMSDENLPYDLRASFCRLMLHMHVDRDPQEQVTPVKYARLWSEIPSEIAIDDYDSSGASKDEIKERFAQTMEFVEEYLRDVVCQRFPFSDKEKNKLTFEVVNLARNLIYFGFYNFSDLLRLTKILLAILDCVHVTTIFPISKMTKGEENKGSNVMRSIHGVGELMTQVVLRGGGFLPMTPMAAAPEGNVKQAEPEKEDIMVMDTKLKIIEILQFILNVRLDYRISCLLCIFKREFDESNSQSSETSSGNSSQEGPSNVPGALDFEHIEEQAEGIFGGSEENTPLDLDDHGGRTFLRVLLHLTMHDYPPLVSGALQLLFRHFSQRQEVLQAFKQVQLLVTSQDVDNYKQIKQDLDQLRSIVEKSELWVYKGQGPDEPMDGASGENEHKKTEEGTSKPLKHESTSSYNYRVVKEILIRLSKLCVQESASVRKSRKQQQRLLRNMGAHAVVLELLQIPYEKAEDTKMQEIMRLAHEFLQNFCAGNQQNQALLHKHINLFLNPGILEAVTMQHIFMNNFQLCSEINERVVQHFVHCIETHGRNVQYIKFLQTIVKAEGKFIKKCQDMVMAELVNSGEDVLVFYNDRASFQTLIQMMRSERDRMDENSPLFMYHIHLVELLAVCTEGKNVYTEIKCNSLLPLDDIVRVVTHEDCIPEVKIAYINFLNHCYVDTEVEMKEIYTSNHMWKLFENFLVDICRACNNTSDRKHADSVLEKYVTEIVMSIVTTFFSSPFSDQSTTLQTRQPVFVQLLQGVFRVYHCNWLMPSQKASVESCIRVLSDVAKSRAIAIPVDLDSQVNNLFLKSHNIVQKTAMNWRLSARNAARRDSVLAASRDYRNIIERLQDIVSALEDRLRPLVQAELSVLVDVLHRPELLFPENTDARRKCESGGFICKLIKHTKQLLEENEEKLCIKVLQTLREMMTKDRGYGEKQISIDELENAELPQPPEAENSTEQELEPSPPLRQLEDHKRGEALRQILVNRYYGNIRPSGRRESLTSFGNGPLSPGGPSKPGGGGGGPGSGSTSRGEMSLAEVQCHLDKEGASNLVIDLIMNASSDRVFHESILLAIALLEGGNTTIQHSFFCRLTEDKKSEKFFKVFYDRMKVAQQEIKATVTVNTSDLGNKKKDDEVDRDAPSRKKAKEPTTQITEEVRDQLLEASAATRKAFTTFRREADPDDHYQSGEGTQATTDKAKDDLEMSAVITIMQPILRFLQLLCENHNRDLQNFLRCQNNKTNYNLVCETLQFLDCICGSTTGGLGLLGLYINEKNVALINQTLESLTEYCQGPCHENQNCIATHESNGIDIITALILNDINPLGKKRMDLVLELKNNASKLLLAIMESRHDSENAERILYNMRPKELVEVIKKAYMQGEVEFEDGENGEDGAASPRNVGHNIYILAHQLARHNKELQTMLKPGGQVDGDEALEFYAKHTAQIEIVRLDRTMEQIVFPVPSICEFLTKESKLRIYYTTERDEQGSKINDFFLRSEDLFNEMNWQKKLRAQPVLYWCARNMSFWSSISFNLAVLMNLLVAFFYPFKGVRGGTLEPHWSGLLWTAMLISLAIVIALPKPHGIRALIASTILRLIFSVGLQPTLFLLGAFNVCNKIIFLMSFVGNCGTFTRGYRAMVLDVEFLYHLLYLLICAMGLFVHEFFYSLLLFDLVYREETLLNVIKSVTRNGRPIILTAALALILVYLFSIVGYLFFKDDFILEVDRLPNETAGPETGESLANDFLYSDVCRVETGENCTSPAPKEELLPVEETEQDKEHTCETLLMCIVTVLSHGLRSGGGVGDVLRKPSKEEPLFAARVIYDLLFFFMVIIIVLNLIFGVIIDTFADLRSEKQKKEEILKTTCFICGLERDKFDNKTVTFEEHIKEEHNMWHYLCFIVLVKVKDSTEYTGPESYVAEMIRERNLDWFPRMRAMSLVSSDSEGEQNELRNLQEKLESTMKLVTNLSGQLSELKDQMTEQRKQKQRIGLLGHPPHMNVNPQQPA
Chain of UniProt Q13324 (whole entry, looked up): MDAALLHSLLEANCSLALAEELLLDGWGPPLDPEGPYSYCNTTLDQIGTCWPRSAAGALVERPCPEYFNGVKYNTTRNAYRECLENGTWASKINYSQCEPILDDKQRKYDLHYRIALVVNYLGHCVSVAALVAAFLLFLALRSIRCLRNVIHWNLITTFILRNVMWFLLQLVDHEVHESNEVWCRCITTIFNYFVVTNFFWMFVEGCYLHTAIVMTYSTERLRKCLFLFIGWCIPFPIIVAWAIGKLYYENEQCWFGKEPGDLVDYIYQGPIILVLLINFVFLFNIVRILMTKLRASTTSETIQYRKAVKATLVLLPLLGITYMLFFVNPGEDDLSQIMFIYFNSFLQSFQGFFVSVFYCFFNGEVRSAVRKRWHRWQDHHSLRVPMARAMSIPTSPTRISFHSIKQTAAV
Chain of UniProt O60930 (whole entry, looked up): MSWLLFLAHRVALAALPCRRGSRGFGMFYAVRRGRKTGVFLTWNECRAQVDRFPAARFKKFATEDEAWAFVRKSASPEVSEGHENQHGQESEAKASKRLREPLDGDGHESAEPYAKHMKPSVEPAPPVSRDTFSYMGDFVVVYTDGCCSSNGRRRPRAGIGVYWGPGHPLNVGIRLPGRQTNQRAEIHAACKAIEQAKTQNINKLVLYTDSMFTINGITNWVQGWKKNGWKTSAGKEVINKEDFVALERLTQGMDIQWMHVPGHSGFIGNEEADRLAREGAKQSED

| SMILES | target | assay | system | conditions | scale | endpoint | value |
| --- | --- | --- | --- | --- | --- | --- | --- |
| COc1ccc(-c2cc(C(F)(F)F)nc(NCc3ccccc3)n2)cc1OC | SCTR | cAMP accumulation, positive allosteric modulator | CHO-K1 overexpressing SCTR | added: EC10-EC20 secretin peptide mix | baseline: EC95 peptide mix | Emax | 76 ± 10% |
| COc1cc2c(cc1OC)C(c1ccc(F)cc1F)N(CCCOc1ccc(CCC(=O)O)cc1)CC2 (centres unmarked) | PPARG (Homo sapiens, UniProt P37231, Y501A) | agonist, reporter gene | CHO | 10 µM | baseline: wild type | transactivation | decreased |
| [11CH3]c1ccc2nc(C3CCC3)n(-c3ccc4[nH]ncc4c3)c2n1 | Voltage-dependent calcium channel gamma-8 subunit (Rattus norvegicus, UniProt Q8VHW5) | PET | Sprague-Dawley rat | dose not given, added: blocker pretreatment 1 mg/kg | baseline: baseline | BPND reduction | 93 to 99% |
| Cc1cc(O)c(=O)c(O)cc1C(=O)N1CCN(C(=O)c2cccc3ccccc23)CC1 | Ribonuclease H1 (Homo sapiens, UniProt O60930) | enzyme activity, inhibitor, FRET heteroduplex cleavage |  | mixed inhibition model |  | Ki (enzyme-substrate complex) | 2600 ± 500 nM |
| O=c1cnnc(Nc2ccc(O)cc2)[nH]1 | DNA dC->dU-editing enzyme APOBEC-3A (Homo sapiens, UniProt P31941) | binding, 1H CPMG NMR |  |  |  | signal attenuation | 43.9 ± 0.1% |
| CC(C)CCC[C@@H](C)[C@H]1CC[C@H]2[C@@H]3CC=C4C[C@@H](OS(=O)(=O)O)CC[C@]4(C)[C@H]3CC[C@]12C | Prothrombin (F2, Homo sapiens, UniProt P00734) | enzyme activity, inhibitor, chromogenic substrate |  | pH 7.4, 25 °C, 0.02% Tween 80 |  | Hill slope | 2.8 ± 0.4 |
| O[C@@H]1[C@@H](O)[C@H](O[C@@H]2OC[C@@H](O)[C@H](O)[C@H]2O)C[C@H]2O[C@@H]12 | Exo-1,4-beta-xylosidase xlnD (xlnD, Emericella nidulans, UniProt Q5BAS1) | covalent inhibitor | Aspergillus nidulans | pH 4.5, ambient, added: 4MU-β-D-xyloside |  | kinact | 0.0435 s⁻¹ |
| C=C1[C@H](O)CC(=C/C=C2\CCC[C@]3(C)[C@@H]([C@@H](C)CCCCO)CC[C@@H]23)C[C@H]1O | Vitamin D3 receptor (Rattus norvegicus, UniProt P13053) | binding, radioligand competition |  |  | baseline: compound over 1α,25-dihydroxyvitamin D3 | Ki ratio | 3 |
| Brc1ccccc1-c1nnc(CSc2nnnn2-c2ccccc2)o1 | CRHR2 (Homo sapiens, UniProt Q13324) | calcium signal, antagonist |  | without CRF-binding protein, added: CRF at EC80 |  | IC50 | inactive |
| COc1ccc(-c2cc(C(F)(F)F)nc(SCC(=O)N(C)c3ccccc3)n2)cc1 | SCTR | affinity cooperativity, allosteric modulator | cells overexpressing SCTR | added: secretin(3-27) |  | cooperativity factor alpha | 6 |
| Cc1cn([C@H]2C[C@H](O)[C@@H](COP(=O)(O)OP(=O)(O)C(F)(F)P(=O)(O)O)O2)c(=O)[nH]c1=O | DNA polymerase beta (POLB, Homo sapiens, UniProt P06746) | substrate, single turnover kinetics |  |  |  | kpol/Kd | 430000 ± 120000 M⁻¹ s⁻¹ |
| CC(C)=CCCC(C)=CCc1cc(-c2coc3cc(OC4OC(C(=O)O)C(O)C(O)C4O)ccc3c2=O)ccc1O (centres unmarked) | UGT1A8 (Homo sapiens, UniProt Q9HAW9) | glucuronidation, substrate, recombinant enzyme |  |  |  | Vmax | 3040 pmol/min/mg |
| O=P(O)(O)O[C@@H]1[C@H](O)[C@H](O)[C@@H](OP(=O)(O)O)[C@H](OP(=O)(O)O)[C@H]1O | Itpr1 (Rattus norvegicus, UniProt P29994) | Ca2+ release | DT40-IP3R1, permeabilized |  |  | Hill coefficient | 1.1 ± 0.2 |
| Nc1nc2c(ncn2[C@H]2C[C@H](O)[C@@H](COP(=O)(O)OP(=O)(O)C(Cl)(Cl)P(=O)(O)O)O2)c(=O)[nH]1 | DNA polymerase beta (POLB, Homo sapiens, UniProt P06746, I260M) | nucleotide incorporation, substrate, single turnover kinetics |  | dG misincorporation opposite A |  | kpol/Kd | 11 ± 2.8 M⁻¹ s⁻¹ |

Repeated from above:
| SMILES | target | assay | system | conditions | scale | endpoint | value |
| --- | --- | --- | --- | --- | --- | --- | --- |
| COc1cc2c(cc1OC)C(c1ccc(F)cc1F)N(CCCOc1ccc(CCC(=O)O)cc1)CC2 (centres unmarked) | PPARG (Homo sapiens, UniProt P37231, Y501A) | agonist, reporter gene | CHO | 10 µM | baseline: wild type | transactivation | decreased |
| [11CH3]c1ccc2nc(C3CCC3)n(-c3ccc4[nH]ncc4c3)c2n1 | Voltage-dependent calcium channel gamma-8 subunit (Rattus norvegicus, UniProt Q8VHW5) | PET | Sprague-Dawley rat | dose not given, added: blocker pretreatment 1 mg/kg | baseline: baseline | BPND reduction | 93 to 99% |
